# Experimental data collected from several papers.
# Each numbered part is a random draw from the data of one study; scales do not carry over between parts.

# Block 1 — technique: RNA Bind-n-Seq; form: RNA; medium: in vitro; tested at: not given; baseline: input RNA pool; reading: higher = stronger binding
# Target: RING finger protein unkempt homolog, zinc fingers 1-6, GST-SBP tag (UNK, Homo sapiens, UniProt Q9C0B0, residues 30-357)
# Chain of UniProt Q9C0B0 (30-357, looked up): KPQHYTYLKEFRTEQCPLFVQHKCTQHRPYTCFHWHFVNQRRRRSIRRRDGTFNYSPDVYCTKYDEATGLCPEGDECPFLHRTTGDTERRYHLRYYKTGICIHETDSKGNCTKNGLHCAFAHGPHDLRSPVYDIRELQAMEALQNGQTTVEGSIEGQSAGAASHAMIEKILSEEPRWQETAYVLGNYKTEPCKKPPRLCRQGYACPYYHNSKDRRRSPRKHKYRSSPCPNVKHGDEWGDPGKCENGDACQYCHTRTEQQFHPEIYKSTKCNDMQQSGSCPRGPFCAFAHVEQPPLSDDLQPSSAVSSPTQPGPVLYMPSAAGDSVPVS
# Notes: RNA with constant flanks, human-mouse chimeric sites, ends assumed
Oligonucleotide,bound/input enrichment [ratio]
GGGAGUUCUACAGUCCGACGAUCAGAAAGCAAAACUUGGAACGAUUUAAGAAAGGAGACGUAAGAUUCUUGAUUUGCACAGAUGUAGCUGCUAGAGGGAUUGAUAUCCACGGUGUUCCUUAUGUGAUCAACGUCACCCUGCCUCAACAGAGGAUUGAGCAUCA,0.188
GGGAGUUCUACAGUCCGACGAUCACACAAUAUGAGACCAACAGCAUGGACUUCAAAGUCGGGGCAGAUGGGACAGUCUUCGCCACUAGGGAGCUGCAGGUCCCCUCCGAGCAGGUGGCGUUCACGGUGACUGCAUGGGACAGCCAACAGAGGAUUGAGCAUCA,0.203
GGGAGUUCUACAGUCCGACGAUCGAGUCGAGCAAACUUGAAACAAUUCGUUAUCUUGCAGAGCUUCGGUGUUUACUUGCCGCGAUAGCAUUGGGGUUUUAUAGGUUCUGGAAGGAGAACUGACGAUGAUGCUGCCGCUGCUGCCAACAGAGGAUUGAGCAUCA,0.623
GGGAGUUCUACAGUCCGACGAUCUCAUUUUUCUCUUUUCUUUCUUUCCUUUAGGAAAAGCCUAAAGAUUAGUAAGAAAAGAAAACAGAAGCCAUGUUUCGAAGACCUGUGUUACAGGUACUUCGUCAGUUUGUAAGACAUGAGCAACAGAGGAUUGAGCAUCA,0.171
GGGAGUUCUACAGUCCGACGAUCUAAGUUAUUUUGUACAGCUUUGUAAAUUCUUAACAUUUUUAUAUUGCCAUGUUUAUUUUGUUUGGGUGCUUUAUUAAAUUAAGUACAUAGCUAAGGUAAUGAACAUCUUUUUCAGUAAUUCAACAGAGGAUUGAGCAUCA,0.985
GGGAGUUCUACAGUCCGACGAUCAACAUUUUGUCAAAUUGUUAUGUUCCUGUGAAACAAGUGAACACUCUGAUACACUUCAUCUGCUUGUACAUCUGUAUGAUAGAGAAACAGAAAUCUAUUAAUCCAAGCAAUGUGUCACUUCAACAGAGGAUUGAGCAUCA,0.119
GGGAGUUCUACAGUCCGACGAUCGUAAUGGACGUUAAUACUGCUCUACAAGAGGUGCUGAAGACCGCCCUCAUCCACGAUGGCCUAGCACGUGGCAUACGCGAAGCUGCCAAAGCCUUAGACAAGCGCCAAGCCCAUCUGUGUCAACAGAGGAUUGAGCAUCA,0.294
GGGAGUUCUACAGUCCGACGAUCCGGAGCCCUCCUCUCCCACAGGCCCAAGAUAUAACCCACCAGUGCCUUUUGUCUUCCUGUCAGCUCUGUCAAUCACGGCCCUGCCUUCACGCCCACACCAAGUGCCCAAAGUGGGGAGGGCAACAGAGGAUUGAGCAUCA,0.378
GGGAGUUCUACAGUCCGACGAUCAUAAAGGCUAUGUUGAGUGGCCCAGGUCAGUUUGCUGAGAAUGAAACCAACGAGGUCAAUUUUAGAGAGAUCCCCUCACAUGUGCUAUCAAAAGUGUGCAUGUAUUUUACGUACAAGGUCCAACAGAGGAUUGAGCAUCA,0.214
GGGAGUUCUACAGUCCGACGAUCAAAGUGGACUAUGGCGAGUACAUGGAUAAAAAUAAUGUGAGGCGGCAAGCAACAACAAUCAUAGCUGAUAAUAUUAUAUUUCUGAGUGACCAGACAAAAGAAAAGGCAUAGAACGGAUGACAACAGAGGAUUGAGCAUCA,3.99
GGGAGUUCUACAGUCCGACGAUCAAAGAGUGGAUAGAGUGUGCACACGGGAUCGGUGGGACCCGGGCGAAAAAGGAGUGCAAGAUAGAGUUCGAUGACUUCGUAGAGUGUUUGCUUCGGUACAAAACGAUGAGACGUGCACAUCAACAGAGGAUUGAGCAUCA,0.401

# Block 2 — technique: aptamer microarray, sandwich; form: DNA with 2'F-ANA; medium: in vitro; tested at: 200 nM; with: Cy3 exosite-II aptamer, 400 nM; reading: higher = stronger binding; oligonucleotide: GGTTGGTGTGGTTGG
# Target: Prothrombin, mature alpha-thrombin (F2, Homo sapiens, UniProt P00734)
# Notes: whole 15-mer aptamer, many near background
Modification,mean fluorescence intensity
2'F-ANA at 2 3 4 6 8 12 14,317 a.u.
2'F-ANA at 1 2 3 4 5 9 11 13 14,55.5 a.u.
2'F-ANA at 1 4 5 6 7 8 9 10 13 14 15,58.2 a.u.
2'F-ANA at 7 9 11,528 a.u.
2'F-ANA at 1 4 7 8 9 13 14,48.6 a.u.
2'F-ANA at 1 3 5 6 7 10 13 15,44.1 a.u.
2'F-ANA at 1 8 10,67.3 a.u.
2'F-ANA at 1 2 3 9 12 13,397 a.u.
2'F-ANA at 1 7 8 11 12 13 14,79.1 a.u.
2'F-ANA at 3 4 9 11 13 14 15,269 a.u.
2'F-ANA at 1 3 4 5 7 10 12,340 a.u.
2'F-ANA at 2 6 7 8 9 11 12 13 14 15,142 a.u.
2'F-ANA at 3 4 6 8 9 11 12 13 14 15,244 a.u.
2'F-ANA at 4 5 6 8 9 10 11 14 15,47.7 a.u.
2'F-ANA at 3 4 5 6 11 12 13,106 a.u.
2'F-ANA at 2 4 6 7 10 11 14,58.8 a.u.

# Block 3 — technique: competition protein-binding microarray; form: double-stranded DNA, one strand shown; medium: in vitro; tested at: 2 µM; with: Pho4 competitor, 0.05 µM; reading: higher = stronger binding
# Target: Centromere-binding protein 1, full length, His-tagged (CBF1, Saccharomyces cerevisiae, UniProt P17106, residues 1-351)
# Chain of UniProt P17106 (whole entry, looked up): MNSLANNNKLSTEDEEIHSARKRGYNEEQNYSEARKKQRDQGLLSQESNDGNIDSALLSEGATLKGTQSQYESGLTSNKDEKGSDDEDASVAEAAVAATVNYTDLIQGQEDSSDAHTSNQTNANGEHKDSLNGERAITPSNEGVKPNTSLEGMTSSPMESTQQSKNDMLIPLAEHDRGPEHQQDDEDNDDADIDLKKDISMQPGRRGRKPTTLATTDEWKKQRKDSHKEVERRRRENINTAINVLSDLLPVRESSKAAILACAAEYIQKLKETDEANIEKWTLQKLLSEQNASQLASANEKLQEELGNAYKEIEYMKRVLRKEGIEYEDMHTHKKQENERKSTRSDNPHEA
# Notes: whole 60-bp probe, lowest competitor level
Oligonucleotide,fluorescence intensity [a.u.]
CGGGGTTAAGTTTTTCACGTGCTATGCTTGCAGCAGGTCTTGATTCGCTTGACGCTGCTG,1060
CACACTGCGGGGTTACCCGTGTAACGTAGAATAAAAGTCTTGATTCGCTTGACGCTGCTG,75
TTCTTTGGTGATTCTGGCGTGATGGAACATTCGTATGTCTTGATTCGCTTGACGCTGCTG,89.6
ATCATCGTAGATACCCACGTATAAATCAGTAACGCCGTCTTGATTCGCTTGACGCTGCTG,78.2
GACTCACCCACTCAGGACATGATGTCAGTAGCGGGTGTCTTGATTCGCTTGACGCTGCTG,56
CATACCCAACCTTTTCACGTGGTTTAAGATATTTGTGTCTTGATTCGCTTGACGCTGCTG,1450
CCACAATCACTAGACCATGTGATTTGTATTTTTCGGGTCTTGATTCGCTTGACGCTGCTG,2090
TTCATCAATGAGACTCTCGTGAAGCTTACCTTGGAGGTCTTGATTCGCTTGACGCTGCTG,85.8
GTCTTGTCTCATTCCCACGTGTTTTTCCCCACTTCAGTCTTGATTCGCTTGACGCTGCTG,773
CTGTGTTAACTTCAACACGTGAGGAATTTGCTTCATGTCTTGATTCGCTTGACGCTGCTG,1840
AACCGCAAGTATATACACGCACACACCTATCAATCAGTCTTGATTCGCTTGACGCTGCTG,88.2
CGGGGTTAAGTTTGTCTCGTGGGTGGCTTGCAGCAGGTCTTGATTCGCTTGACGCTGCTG,94.7
GTCTTGTCTCATTGCACGGTGGGTGTCCCCACTTCAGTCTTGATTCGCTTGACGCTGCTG,77.3
CTTCTGTAAATTTGGAGCGTGGGTGGACGCGCCCCGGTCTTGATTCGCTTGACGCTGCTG,71.6
CGGGGTTAAGTTTGATTGGTGGGTGGCTTGCAGCAGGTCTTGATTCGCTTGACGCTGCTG,75
ATTTTGCTAATTAAAGGCGTGCCGAAGCGGCGACTAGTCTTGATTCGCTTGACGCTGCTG,82.4
AAATTACTAAGTTGAAGCGTGGGTGACGCCGTATGAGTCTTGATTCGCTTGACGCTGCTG,80.4
ACATAGTAGGAAAATAATGTGCGTAGAATGATAAGAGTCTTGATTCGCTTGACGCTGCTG,91.2
CGCAATTTCCTTTATCGAACATATTGGGTAAACAACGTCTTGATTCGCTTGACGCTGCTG,69.8
GTCTCTCGTCCCATGCTCGTGCGATTTGTGCATTCAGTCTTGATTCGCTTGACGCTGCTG,105
CTAACGAAGGTTTGTCCTGTGGGTGACAAGCCAAGTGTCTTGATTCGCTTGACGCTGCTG,69.8
GCCAAAGCGCAAGGCCGCGTGGACCACCAGGACGAAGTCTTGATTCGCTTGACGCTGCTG,52.6
CATGCCCTTTCCTCCCTCGTGGGACCTCCCAGGAGAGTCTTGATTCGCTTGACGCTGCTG,52
AGTGCGAACTACTGTTACGTGTGAATTGTAAAGGCGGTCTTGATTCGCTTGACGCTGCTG,81.2
CCAAAAACCCTACGGCATGTGGGATTGGGACACCTTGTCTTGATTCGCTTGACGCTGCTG,60.7

# Block 4 — technique: protein-binding microarray; form: double-stranded DNA, one strand shown; medium: in vitro; tested at: 250 nM; notes: 60-bp whole probe; with: salmon DNA 0.4 mg/ml; baseline: random background probes; reading: higher = stronger binding; all sequences stand within: GCCTAGCAC … GTCTTGATTCGCTTGACGCTGCTG
# Target: Interferon regulatory factor 7, full length, phosphomimetic (IRF7, Homo sapiens, UniProt Q92985, residues 1-503, S101K/S471D/S472D/S475D/S476D/S477D/S483D/S484D/S487D)
# Residues (chain): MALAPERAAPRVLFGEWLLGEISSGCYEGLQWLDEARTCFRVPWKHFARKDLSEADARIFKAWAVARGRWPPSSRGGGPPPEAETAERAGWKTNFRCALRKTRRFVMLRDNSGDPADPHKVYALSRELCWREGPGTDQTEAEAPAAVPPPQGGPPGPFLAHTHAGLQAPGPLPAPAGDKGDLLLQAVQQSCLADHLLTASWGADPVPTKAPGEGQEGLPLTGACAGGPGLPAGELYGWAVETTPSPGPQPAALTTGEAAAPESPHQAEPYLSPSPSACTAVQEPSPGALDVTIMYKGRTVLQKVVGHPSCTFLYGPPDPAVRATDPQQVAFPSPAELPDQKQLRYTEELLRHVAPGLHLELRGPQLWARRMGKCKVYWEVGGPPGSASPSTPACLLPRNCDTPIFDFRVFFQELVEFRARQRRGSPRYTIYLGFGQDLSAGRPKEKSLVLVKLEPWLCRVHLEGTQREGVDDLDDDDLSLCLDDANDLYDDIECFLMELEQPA
Oligonucleotide,log fluorescence [z-score]
TCAAGTCTGCAACATGGGACTGTGCTA,-0.524
AAAAAAAATGGAAATCTACCCGTGCTA,-0.36
GACGATATCGGGGCTGGAGACGTGCTA,-0.633
GACGCACTGGGGACTGGGGACGTGCTA,-0.204
TTAGGTTTCGGACTGGGGTAGTGCTAG,3.5
TTAAATTTCAGACTGGATTAGTGCTAG,0.0917
TTAGGTTTCTTTTTCCTTTAGTGCTAG,6.69
GACCGACTGGGACTGGGGACGTGCTAG,-0.155
TCAAATCTGTGTTATTAAACTGTGCTA,0.481
TTTGATATCAGACTGGATTAGTGCTAG,-0.075
AAATATATACAAACTAAGGATGTGCTA,-0.038
GACGGTATCCTTTTCCTGGCGTGCTAG,0.972
GACGAACTGGGGTATCGAAACGTGCTA,-0.14
AGAAATTTCTTTCTAATTCAGTGCTAG,0.51
AAATCATTTTCTCTGTTCTAGTGCTAG,1.25
TCATCTCCATTTTTCTAACTGTGCTAG,1.25
TTTGGTTTGTACACCGCCTTGTGCTAG,0.0448
TCACCTCTCACGCATCTGACTGTGCTA,-0.0702
GTCCTCCTCTCTCTTTCCACGTGCTAG,1.94
CTGTTCTGCAGACTTCTGTCGTGCTAG,1.34
TTAGGTCTCGGTATAGGTTAGTGCTAG,1.8
TCATCTTTCTGTCAGTTACTGTGCTAG,0.792
TCAGGTTTCGGTTCCGGTTAGTGCTAG,12.9
TCATGTTTGGGCATTTTTACTGTGCTA,-0.317

# Block 5 — technique: protein binding microarray; form: double-stranded DNA, one strand shown; medium: in vitro; tested at: not given; baseline: not given; reading: higher = stronger binding
# Target: Histone acetyltransferase KAT6A, winged helix 1, GST fusion (KAT6A, Homo sapiens, UniProt Q92794, residues 1-85)
# Notes: 8-mer, flanks averaged, mean of 2 arrays, mostly near background
# Residues (chain): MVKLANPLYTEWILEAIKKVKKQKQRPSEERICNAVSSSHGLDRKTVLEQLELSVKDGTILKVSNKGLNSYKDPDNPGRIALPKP
Oligonucleotide,E-score
CGGCATGC,0.43
AGTATAAC,0.0217
ACGGATAA,0.157
AGTTTAAA,-0.16
CCACTGCG,0.145
AAAGTTGT,0.026
ATCTGTGC,-0.088
AAAAGTCA,-0.145
CGGGGACG,0.228
AACAGAGC,-0.014
CGCTGTTA,0.203
CAGCCTGA,-0.192
ATCGATAG,-0.153
CAGAAAGC,-0.056
CTTTCGCA,-0.025
ACCCTAAG,-0.28
CATCATAC,-0.105
AAGCGAGC,0.0941
AGTCTTCC,-0.0428
AGGATAAG,-0.175
